Experimental data from different studies.
Each numbered part is a random draw from the data of one study; scales do not carry over between parts.
Chain of UniProt Q13705 (whole entry, looked up): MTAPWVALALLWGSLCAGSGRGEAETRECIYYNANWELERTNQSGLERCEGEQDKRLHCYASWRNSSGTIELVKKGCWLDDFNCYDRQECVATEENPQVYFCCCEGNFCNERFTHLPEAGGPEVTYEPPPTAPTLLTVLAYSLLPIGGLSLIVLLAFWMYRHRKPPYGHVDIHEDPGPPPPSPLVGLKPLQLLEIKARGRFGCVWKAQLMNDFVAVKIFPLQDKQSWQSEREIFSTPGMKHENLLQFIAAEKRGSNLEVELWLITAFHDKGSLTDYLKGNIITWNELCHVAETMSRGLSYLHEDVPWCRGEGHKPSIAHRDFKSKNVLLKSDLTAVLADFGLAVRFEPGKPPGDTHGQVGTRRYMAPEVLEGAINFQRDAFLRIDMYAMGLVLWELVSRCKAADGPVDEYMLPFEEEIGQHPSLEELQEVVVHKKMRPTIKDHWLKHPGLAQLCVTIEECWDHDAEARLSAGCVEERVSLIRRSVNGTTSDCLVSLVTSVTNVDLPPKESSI
Chain of UniProt P17948 (whole entry, looked up): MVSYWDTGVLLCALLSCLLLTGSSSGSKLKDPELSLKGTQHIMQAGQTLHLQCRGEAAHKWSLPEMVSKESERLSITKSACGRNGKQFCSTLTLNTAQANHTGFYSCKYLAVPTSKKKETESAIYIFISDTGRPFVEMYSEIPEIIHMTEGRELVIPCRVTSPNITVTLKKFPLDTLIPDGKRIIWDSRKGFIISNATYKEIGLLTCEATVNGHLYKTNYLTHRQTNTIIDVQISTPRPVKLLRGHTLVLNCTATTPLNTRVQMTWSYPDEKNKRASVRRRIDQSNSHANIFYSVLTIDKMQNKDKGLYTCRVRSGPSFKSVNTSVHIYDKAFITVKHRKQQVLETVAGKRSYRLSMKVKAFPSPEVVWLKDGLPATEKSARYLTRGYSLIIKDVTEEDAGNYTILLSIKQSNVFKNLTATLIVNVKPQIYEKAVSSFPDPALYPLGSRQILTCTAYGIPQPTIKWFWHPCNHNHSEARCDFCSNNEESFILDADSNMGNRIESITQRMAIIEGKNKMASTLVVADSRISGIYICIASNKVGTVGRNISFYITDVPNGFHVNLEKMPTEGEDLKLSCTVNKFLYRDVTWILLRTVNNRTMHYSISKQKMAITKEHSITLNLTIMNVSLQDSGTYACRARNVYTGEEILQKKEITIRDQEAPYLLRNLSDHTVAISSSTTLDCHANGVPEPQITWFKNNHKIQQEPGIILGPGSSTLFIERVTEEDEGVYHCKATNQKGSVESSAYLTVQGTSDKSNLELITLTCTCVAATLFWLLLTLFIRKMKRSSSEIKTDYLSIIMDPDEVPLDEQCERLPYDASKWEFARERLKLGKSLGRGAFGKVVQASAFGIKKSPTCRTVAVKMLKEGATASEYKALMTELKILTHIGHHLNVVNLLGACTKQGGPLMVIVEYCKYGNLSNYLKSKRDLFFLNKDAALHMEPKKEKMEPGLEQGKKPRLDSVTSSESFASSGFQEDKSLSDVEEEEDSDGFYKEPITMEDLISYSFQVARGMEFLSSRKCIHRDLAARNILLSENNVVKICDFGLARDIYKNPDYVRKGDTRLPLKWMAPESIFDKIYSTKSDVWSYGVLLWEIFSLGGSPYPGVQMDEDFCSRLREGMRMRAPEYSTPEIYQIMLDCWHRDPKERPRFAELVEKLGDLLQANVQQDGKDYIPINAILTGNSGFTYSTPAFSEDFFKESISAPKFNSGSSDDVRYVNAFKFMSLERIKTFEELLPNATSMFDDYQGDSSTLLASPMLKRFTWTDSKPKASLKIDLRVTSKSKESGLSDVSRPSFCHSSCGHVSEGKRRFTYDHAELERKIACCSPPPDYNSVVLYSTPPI
Chain of UniProt P07333 (whole entry, looked up): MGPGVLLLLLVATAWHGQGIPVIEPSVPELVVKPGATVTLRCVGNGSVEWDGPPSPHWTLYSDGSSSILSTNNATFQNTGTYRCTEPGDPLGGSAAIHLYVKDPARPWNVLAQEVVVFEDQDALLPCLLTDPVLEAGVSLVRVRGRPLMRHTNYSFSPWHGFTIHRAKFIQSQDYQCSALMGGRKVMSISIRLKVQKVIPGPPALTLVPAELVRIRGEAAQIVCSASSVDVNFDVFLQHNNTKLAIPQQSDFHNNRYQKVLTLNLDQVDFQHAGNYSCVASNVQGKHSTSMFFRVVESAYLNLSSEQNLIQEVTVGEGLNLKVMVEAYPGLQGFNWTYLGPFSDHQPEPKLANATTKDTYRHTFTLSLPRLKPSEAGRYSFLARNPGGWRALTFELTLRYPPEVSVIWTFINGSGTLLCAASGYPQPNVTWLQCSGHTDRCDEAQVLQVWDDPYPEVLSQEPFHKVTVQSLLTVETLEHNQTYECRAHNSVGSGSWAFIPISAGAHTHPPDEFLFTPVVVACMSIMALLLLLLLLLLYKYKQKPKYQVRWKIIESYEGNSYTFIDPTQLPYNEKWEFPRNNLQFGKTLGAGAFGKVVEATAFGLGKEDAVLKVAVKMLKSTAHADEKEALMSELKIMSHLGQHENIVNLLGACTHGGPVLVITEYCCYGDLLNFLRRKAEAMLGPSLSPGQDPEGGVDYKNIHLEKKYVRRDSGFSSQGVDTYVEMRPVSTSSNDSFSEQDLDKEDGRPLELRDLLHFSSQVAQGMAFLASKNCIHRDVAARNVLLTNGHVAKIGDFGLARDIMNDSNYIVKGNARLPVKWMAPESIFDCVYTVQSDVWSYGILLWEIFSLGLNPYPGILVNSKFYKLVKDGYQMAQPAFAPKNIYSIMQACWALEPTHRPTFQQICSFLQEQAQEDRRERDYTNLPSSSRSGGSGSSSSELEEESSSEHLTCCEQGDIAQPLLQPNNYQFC
Chain of UniProt Q04912 (whole entry, looked up): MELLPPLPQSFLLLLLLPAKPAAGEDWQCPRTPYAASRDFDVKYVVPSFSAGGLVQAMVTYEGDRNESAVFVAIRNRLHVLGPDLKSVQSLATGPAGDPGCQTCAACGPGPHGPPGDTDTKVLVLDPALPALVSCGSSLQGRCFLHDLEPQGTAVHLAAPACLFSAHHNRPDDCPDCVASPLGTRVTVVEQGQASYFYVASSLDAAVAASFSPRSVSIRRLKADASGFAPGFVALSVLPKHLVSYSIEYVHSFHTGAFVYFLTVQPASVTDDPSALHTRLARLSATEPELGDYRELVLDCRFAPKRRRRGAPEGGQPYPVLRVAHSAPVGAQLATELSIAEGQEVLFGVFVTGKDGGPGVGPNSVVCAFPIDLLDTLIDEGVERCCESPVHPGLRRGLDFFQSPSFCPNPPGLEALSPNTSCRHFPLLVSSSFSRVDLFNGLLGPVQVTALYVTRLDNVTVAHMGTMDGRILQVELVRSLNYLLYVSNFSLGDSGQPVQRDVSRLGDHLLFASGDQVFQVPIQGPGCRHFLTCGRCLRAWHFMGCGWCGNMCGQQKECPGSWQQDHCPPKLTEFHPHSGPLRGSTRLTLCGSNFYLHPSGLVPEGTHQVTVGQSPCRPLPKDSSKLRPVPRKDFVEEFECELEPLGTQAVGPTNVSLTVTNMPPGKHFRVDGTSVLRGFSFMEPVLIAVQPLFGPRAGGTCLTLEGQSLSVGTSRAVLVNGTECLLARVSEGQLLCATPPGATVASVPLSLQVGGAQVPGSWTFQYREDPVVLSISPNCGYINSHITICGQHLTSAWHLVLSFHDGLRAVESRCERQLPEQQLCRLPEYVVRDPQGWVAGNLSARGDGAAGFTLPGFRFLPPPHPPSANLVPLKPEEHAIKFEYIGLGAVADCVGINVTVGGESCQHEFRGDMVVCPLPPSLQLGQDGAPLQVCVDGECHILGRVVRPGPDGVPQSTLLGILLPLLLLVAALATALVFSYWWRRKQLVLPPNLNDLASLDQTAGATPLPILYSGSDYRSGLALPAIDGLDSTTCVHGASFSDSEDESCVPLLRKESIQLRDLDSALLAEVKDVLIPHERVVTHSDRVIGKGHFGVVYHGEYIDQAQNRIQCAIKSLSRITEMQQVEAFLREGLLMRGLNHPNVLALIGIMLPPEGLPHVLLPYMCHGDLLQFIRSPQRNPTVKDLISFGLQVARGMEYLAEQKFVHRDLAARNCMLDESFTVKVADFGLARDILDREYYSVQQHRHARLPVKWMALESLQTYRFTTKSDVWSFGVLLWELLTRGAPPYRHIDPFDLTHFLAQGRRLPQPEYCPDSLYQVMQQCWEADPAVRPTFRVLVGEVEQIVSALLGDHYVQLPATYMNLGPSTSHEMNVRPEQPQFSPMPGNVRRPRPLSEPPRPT

Sample 1
SMILES: O=C(Nc1ccccc1)Nc1cccc(Oc2ccc3nccn3n2)c1
Tested at: 1 µM
It gave 13% for remaining activity (MAP3K19 (Homo sapiens, UniProt Q56UN5)).
PRKACB (Homo sapiens, UniProt P22694) — remaining activity: 30%.
FLT1 (Homo sapiens, UniProt P17948) — remaining activity: 3.2%.
The remaining activity was 33% (FLT4 (Homo sapiens, UniProt P35916)).
It gave 0% for remaining activity (PDGFRB (Homo sapiens, UniProt P09619)).
It gave 0.4% for remaining activity (CSF1R (Homo sapiens, UniProt P07333)).
STK11 (Homo sapiens, UniProt Q15831) — remaining activity: 76%.
For DDR1 (Homo sapiens, UniProt Q08345): remaining activity read 2.2%.

Sample 2
Target: Myosin light chain kinase 2, skeletal/cardiac muscle (MYLK2, Homo sapiens, UniProt Q9H1R3)
Chain of UniProt Q9H1R3 (whole entry, looked up): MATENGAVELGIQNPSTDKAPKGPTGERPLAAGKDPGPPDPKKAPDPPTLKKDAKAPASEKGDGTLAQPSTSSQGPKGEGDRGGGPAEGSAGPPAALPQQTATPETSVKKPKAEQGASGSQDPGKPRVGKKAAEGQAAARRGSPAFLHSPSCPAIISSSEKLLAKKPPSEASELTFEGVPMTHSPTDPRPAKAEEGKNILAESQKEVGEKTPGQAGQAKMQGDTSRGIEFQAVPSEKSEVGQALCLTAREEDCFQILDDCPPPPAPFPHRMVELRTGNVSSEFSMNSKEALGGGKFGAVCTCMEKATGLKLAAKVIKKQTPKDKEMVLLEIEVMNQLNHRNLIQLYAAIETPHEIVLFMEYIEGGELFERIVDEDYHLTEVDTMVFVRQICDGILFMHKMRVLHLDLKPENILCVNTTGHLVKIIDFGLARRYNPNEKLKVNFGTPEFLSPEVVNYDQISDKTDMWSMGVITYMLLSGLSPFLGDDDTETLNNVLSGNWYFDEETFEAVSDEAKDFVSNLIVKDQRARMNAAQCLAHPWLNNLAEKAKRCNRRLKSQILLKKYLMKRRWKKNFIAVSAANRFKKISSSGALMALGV
Read-out: enzyme activity
Mode: inhibitor
Tested at: 0.5 µM
Reference: control
With `O=c1c(-c2ccc(F)cc2)c(-c2ccncc2)[nH]n1-c1ccc(Cl)cc1` the remaining activity was 101%.
With `CC(C)(C)c1nc2c3cc[nH]c(=O)c3c3cc(F)ccc3c2[nH]1` the remaining activity was 67.2%.
`Nc1nc(Nc2ccc(S(N)(=O)=O)cc2)nn1C(=S)Nc1c(F)cccc1F` gave a remaining activity of 66.6%.
The remaining activity of `NC(=O)c1cccc(-c2cc(Nc3ccc(OC(F)(F)F)cc3)ncn2)c1` is reported as 97.1%.
For `COc1cc2c(Nc3ccc(Br)cc3F)ncnc2cc1OCC1CCN(C)CC1`, the remaining activity was 97.1%.
The remaining activity of `N#CC(c1ccnc(NCCc2cccnc2)n1)c1nc2ccccc2s1` (centres unmarked) is reported as 92.8%.
`FC(F)(F)c1ccc(/C=C/c2nc(COc3ccc(CCCCn4ccnn4)cc3)co2)cc1` gave a remaining activity of 101%.
The remaining activity of `C[C@@H](N)[C@H]1CC[C@H](C(=O)Nc2ccncc2)CC1` is reported as 97.1%.
With `NC(=O)c1ccc(-c2nc(-c3ccc4c(c3)OCCO4)c(-c3ccccn3)[nH]2)cc1` the remaining activity was 95.9%.
`CC(C)n1cnc2c(Nc3cccc(Cl)c3)nc(NCCO)nc21` gave a remaining activity of 96.3%.
`CC(C)N(CCC(=O)c1ccc2ccccc2c1)Cc1ccccc1` gave a remaining activity of 100%.
`O=C(c1ccccc1)c1ccc(N2CCOCC2)cc1O` gave a remaining activity of 99.1%.
For `CCN(CC)CCCCN1c2ccccc2Oc2ccc(Cl)cc21`, the remaining activity was 104%.
`CNc1cc2c(Nc3cccc(Br)c3)ncnc2cn1` gave a remaining activity of 97.3%.
`c1cc(-c2cnn3cc(-c4ccc(OCCN5CCCCC5)cc4)cnc23)ccn1` gave a remaining activity of 9.29%.
`N#C/C(=C(/N)SC1C=CC=CC1)c1cccc(C(O)c2ccncc2)c1` (centres unmarked) has a remaining activity of 101%.
`O=C1NC(=O)/C(=C/c2ccc3c(c2)OC(F)(F)O3)S1` has a remaining activity of 96.6%.
For `O=C1c2ccccc2-c2nc3nnnn3nc21`, the remaining activity was 88.1%.
`O=C(O)/C=C/c1cc(Br)c(Br)c(Br)c1Br` gave a remaining activity of 86.8%.
For `O=Nc1c(-c2c(O)[nH]c3ccccc23)[nH]c2ccccc12`, the remaining activity was 41.1%.
`CCCCc1c(-c2ccc(O)cc2)[nH]c2nccnc12` has a remaining activity of 95.7%.

Sample 3
SMILES: Cc1c(C(=O)O)cc(-c2ccc(C3CCNCC3)cc2)c2ccc(-c3ccc(C(F)(F)F)cc3)cc12
Tested at: 1 µM
It gave 96% for remaining binding (Macrophage colony-stimulating factor 1 receptor, autoinhibited (CSF1R, Homo sapiens, UniProt P07333); cell-free assay, competition with immobilised ligand).
LTK (Homo sapiens, UniProt P29376); cell-free assay, competition with immobilised ligand — remaining binding: 100%.
CLK2 (Homo sapiens, UniProt P49760); binding, competition with immobilised ligand — remaining binding: 100%.
For ACVR2B (Homo sapiens, UniProt Q13705); binding, competition with immobilised ligand: remaining binding read 88%.
LIM domain kinase 1 (LIMK1, Homo sapiens, UniProt P53667); binding, competition with immobilised ligand — remaining binding: 100%.
HIPK4 (Homo sapiens, UniProt Q8NE63); binding, competition with immobilised ligand — remaining binding: 100%.
PIP4K2B (Homo sapiens, UniProt P78356); cell-free assay, competition with immobilised ligand — remaining binding: 86%.
For LYN (Homo sapiens, UniProt P07948); cell-free assay, competition with immobilised ligand: remaining binding read 90%.
For ALK (Homo sapiens, UniProt Q9UM73, C1156Y); cell-free assay, competition with immobilised ligand: remaining binding read 100%.
It gave 100% for remaining binding (CDK18 (Homo sapiens, UniProt Q07002); binding, competition with immobilised ligand).
It gave 100% for remaining binding (FLT3 (Homo sapiens, UniProt P36888, K663Q); binding, competition with immobilised ligand).
For CAMK1 (Homo sapiens, UniProt Q14012); cell-free assay, competition with immobilised ligand: remaining binding read 100%.
It gave 100% for remaining binding (FLT3 (Homo sapiens, UniProt P36888, D835Y); binding, competition with immobilised ligand).
CSNK1E (Homo sapiens, UniProt P49674); binding, competition with immobilised ligand — remaining binding: 96%.
It gave 100% for remaining binding (SGK2 (Homo sapiens, UniProt Q9HBY8); binding, competition with immobilised ligand).
MAP3K1 (Homo sapiens, UniProt Q13233); binding, competition with immobilised ligand — remaining binding: 100%.
The remaining binding was 94% (SIK1 (Homo sapiens, UniProt P57059); competition binding).
The remaining binding was 100% (NEK11 (Homo sapiens, UniProt Q8NG66); binding, competition with immobilised ligand).
The remaining binding was 100% (ERBB2 (Homo sapiens, UniProt P04626); binding, competition with immobilised ligand).
PIK3C3 (Homo sapiens, UniProt Q8NEB9); cell-free assay, competition with immobilised ligand — remaining binding: 100%.
It gave 100% for remaining binding (CAMK2B (Homo sapiens, UniProt Q13554); cell-free assay, competition with immobilised ligand).
It gave 100% for remaining binding (EGFR (Homo sapiens, UniProt P00533, A750P/del747-749); cell-free assay, competition with immobilised ligand).
It gave 75% for remaining binding (Myosin-IIIb (MYO3B, Homo sapiens, UniProt Q8WXR4); binding, competition with immobilised ligand).
Ribosomal protein S6 kinase alpha-4, C-terminal kinase domain (RPS6KA4, Homo sapiens, UniProt O75676); binding, competition with immobilised ligand — remaining binding: 100%.
For MERTK (Homo sapiens, UniProt Q12866); binding, competition with immobilised ligand: remaining binding read 91%.

Sample 4
SMILES: C=CC(=O)N1CCC([C@@H]2CCNc3c(C(N)=O)c(-c4ccc(Oc5ccccc5)cc4)nn32)CC1
Tested at: 1 µM
For CDK16 (Homo sapiens, UniProt Q00536); enzyme activity, inhibitor: inhibition read 0%.
EPHB1 (Homo sapiens, UniProt P54762); cell-free assay — inhibition: 0%.
MYLK2 (Homo sapiens, UniProt Q9H1R3); enzyme activity, inhibitor — inhibition: 0%.
The inhibition was 3% (CAMKK1 (Homo sapiens, UniProt Q8N5S9); enzyme activity, inhibitor).
It gave 11% for inhibition (ACVR2B (Homo sapiens, UniProt Q13705); cell-free assay).
The inhibition was 40% (NIM1K (Homo sapiens, UniProt Q8IY84); enzyme activity, inhibitor).
The inhibition was 84% (FRK (Homo sapiens, UniProt P42685); enzyme activity, inhibitor).
It gave 25% for inhibition (Ribosomal protein S6 kinase alpha-2, kinase domain 1 (RPS6KA2, Homo sapiens, UniProt Q15349); inhibitor).
For EGFR (Homo sapiens, UniProt P00533, del747-752/P753S); cell-free assay: inhibition read 64%.
Tyrosine-protein kinase ABL1, phosphorylated (ABL1, Homo sapiens, UniProt P00519, H396P); enzyme activity, inhibitor — inhibition: 6%.
It gave 93% for inhibition (FLT3 (Homo sapiens, UniProt P36888, D835V); enzyme activity, inhibitor).
FLT1 (Homo sapiens, UniProt P17948); cell-free assay — inhibition: 28%.
MAP2K6 (Homo sapiens, UniProt P52564); enzyme activity, inhibitor — inhibition: 7%.
It gave 9% for inhibition (MAPK15 (Homo sapiens, UniProt Q8TD08); enzyme activity, inhibitor).
CILK1 (Homo sapiens, UniProt Q9UPZ9); enzyme activity, inhibitor — inhibition: 0%.
CDK11A (Homo sapiens, UniProt Q9UQ88); enzyme activity, inhibitor — inhibition: 52%.
It gave 93% for inhibition (TEC (Homo sapiens, UniProt P42680); enzyme activity, inhibitor).
It gave 10% for inhibition (STK38 (Homo sapiens, UniProt Q15208); enzyme activity, inhibitor).
MST1R (Homo sapiens, UniProt Q04912); cell-free assay — inhibition: 8%.
JAK3 (Homo sapiens, UniProt P52333); inhibitor — inhibition: 58%.

Repeated from above (sample 3):
It gave 100% for remaining binding (FLT3 (Homo sapiens, UniProt P36888, D835Y); binding, competition with immobilised ligand).
MAP3K1 (Homo sapiens, UniProt Q13233); binding, competition with immobilised ligand — remaining binding: 100%.
CLK2 (Homo sapiens, UniProt P49760); binding, competition with immobilised ligand — remaining binding: 100%.
For LYN (Homo sapiens, UniProt P07948); cell-free assay, competition with immobilised ligand: remaining binding read 90%.
PIP4K2B (Homo sapiens, UniProt P78356); cell-free assay, competition with immobilised ligand — remaining binding: 86%.
CSNK1E (Homo sapiens, UniProt P49674); binding, competition with immobilised ligand — remaining binding: 96%.
LIM domain kinase 1 (LIMK1, Homo sapiens, UniProt P53667); binding, competition with immobilised ligand — remaining binding: 100%.
The remaining binding was 100% (NEK11 (Homo sapiens, UniProt Q8NG66); binding, competition with immobilised ligand).
For ACVR2B (Homo sapiens, UniProt Q13705); binding, competition with immobilised ligand: remaining binding read 88%.
LTK (Homo sapiens, UniProt P29376); cell-free assay, competition with immobilised ligand — remaining binding: 100%.
